Assay results from different studies.
NPY1R: Neuropeptide Y receptor type 1 (NPY1R, Homo sapiens, UniProt P25929)
Sequence of UniProt P25929 (whole entry, looked up): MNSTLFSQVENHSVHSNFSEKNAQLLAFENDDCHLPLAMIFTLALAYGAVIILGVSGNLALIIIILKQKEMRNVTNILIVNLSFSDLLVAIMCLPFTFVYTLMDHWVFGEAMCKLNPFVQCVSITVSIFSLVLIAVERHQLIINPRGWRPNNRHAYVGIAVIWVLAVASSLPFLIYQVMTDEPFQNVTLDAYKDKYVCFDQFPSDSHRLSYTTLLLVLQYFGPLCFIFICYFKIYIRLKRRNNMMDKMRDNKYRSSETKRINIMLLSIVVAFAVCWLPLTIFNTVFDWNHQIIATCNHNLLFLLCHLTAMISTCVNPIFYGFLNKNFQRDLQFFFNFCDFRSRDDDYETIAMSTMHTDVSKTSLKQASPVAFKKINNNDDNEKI
Sequence of UniProt P03372 (whole entry, looked up): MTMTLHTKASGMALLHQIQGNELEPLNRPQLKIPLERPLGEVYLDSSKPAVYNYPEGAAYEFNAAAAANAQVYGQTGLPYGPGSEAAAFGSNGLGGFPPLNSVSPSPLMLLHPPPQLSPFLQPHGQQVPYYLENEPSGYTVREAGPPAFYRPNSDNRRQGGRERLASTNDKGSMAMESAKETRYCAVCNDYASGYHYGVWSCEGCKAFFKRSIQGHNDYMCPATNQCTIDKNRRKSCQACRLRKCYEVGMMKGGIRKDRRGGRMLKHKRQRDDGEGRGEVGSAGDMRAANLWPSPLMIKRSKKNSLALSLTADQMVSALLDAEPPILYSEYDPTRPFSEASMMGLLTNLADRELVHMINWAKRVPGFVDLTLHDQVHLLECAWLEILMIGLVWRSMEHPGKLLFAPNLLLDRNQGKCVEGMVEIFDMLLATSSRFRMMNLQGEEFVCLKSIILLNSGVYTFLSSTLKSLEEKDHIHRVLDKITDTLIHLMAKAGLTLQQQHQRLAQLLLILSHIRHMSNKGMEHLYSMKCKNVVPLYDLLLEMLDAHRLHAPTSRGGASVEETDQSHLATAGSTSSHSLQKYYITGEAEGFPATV
Sequence of UniProt Q9P0L2 (whole entry, looked up): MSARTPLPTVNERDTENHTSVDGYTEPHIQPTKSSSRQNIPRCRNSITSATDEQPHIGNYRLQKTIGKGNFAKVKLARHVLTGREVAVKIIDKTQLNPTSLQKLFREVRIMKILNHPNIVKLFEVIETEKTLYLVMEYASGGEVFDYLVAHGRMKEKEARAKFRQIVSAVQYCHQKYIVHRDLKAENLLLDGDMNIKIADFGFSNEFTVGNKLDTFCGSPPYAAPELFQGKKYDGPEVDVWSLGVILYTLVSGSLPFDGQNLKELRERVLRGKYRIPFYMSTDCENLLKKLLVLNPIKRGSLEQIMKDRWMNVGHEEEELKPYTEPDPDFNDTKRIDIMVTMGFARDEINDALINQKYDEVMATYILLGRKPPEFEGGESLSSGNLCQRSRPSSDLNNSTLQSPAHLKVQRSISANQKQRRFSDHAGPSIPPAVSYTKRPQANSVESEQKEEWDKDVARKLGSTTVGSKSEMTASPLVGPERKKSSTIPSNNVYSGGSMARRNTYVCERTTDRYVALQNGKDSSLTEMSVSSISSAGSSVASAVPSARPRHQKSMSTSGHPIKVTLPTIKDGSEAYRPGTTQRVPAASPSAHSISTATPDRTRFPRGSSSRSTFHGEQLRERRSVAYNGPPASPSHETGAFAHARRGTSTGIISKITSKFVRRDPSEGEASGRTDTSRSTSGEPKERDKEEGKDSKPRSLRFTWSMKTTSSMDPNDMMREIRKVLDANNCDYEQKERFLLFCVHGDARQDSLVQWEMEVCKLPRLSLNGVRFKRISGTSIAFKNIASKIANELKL
Sequence of UniProt Q16832 (whole entry, looked up): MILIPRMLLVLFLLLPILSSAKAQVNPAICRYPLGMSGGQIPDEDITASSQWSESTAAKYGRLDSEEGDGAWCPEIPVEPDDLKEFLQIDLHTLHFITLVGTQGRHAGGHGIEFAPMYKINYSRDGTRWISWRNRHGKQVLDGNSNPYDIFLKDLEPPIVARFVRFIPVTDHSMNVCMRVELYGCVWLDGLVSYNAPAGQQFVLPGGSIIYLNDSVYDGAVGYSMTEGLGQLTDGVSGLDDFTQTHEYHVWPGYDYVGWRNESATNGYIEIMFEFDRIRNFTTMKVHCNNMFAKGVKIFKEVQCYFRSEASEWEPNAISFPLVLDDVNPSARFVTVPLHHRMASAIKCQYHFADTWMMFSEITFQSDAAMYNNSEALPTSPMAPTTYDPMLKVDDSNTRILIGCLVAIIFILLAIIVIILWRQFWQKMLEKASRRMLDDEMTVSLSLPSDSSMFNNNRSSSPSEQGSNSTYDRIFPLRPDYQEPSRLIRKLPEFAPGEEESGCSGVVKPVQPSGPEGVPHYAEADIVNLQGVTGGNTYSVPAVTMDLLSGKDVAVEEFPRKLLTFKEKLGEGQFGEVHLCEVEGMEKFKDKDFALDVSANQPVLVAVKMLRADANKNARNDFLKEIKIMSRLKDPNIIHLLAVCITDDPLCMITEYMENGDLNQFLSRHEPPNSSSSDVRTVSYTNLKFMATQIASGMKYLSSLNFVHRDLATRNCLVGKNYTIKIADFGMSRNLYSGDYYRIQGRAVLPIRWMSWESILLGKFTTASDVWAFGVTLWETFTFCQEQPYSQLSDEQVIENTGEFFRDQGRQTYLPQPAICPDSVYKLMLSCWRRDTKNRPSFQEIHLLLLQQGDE
Sequence of UniProt P08922 (whole entry, looked up): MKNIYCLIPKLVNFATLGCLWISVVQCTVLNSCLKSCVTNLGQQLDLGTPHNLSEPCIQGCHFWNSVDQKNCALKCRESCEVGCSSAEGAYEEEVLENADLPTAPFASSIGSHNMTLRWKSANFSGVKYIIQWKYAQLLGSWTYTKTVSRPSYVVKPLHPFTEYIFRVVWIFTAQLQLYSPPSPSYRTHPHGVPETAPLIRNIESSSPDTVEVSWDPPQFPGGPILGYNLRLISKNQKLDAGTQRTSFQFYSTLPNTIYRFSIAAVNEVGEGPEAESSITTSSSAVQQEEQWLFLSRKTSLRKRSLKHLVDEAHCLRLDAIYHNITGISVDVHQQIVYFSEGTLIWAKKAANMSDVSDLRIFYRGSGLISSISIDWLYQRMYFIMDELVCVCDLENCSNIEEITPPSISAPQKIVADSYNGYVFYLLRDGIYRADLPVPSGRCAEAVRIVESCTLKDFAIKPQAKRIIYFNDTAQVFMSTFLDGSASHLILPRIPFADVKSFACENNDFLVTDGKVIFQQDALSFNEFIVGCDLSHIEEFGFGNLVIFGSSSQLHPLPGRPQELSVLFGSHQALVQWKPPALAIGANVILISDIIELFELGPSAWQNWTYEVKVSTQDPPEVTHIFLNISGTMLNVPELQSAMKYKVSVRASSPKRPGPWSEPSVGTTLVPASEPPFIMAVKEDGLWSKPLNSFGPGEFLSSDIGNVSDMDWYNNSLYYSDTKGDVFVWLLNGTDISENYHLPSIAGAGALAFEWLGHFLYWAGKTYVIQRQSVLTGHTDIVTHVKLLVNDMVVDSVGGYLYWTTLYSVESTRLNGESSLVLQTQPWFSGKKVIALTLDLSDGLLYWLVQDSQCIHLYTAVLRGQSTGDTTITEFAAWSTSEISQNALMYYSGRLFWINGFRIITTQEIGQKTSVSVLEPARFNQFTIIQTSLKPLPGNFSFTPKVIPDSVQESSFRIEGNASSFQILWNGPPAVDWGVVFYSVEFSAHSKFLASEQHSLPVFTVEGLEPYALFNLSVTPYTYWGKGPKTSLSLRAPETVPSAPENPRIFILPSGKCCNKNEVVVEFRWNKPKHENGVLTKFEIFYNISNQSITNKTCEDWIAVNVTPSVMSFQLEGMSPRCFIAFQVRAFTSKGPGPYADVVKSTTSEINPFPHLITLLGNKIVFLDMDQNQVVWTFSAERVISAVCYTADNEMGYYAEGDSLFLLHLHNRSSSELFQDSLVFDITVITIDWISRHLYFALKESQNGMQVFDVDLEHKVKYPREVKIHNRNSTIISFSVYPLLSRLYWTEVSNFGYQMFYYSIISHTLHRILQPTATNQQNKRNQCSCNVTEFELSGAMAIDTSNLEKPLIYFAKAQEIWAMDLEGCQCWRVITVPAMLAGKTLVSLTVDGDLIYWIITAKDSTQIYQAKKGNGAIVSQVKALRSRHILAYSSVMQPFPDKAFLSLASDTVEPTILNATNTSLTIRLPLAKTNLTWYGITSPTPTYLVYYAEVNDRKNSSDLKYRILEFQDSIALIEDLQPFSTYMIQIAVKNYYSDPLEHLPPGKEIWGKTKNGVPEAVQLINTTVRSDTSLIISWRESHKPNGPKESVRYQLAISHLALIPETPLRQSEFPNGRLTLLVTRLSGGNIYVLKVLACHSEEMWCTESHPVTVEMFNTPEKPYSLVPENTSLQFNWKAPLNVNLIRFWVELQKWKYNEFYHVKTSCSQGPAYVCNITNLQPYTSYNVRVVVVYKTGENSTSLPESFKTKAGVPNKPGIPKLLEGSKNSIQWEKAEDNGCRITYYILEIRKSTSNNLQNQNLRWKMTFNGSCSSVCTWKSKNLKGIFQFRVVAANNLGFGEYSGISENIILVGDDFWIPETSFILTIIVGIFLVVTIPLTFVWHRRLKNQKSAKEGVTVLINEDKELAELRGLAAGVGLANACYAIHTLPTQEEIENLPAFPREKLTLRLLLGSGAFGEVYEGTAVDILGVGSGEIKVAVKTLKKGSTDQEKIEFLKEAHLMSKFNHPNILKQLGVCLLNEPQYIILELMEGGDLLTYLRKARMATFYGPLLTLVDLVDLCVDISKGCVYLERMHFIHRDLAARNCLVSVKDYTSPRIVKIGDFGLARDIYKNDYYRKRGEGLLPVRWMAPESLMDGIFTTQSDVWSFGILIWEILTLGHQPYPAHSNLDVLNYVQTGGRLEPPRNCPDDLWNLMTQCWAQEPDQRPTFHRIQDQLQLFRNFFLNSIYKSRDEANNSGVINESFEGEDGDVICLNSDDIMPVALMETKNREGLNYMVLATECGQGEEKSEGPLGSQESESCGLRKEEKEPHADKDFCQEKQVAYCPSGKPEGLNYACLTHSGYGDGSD

CS(C)(=O)=Nc1ccc(-c2ccc(-c3nc4cc(O[C@@H]5CO[C@H]6[C@@H]5OC[C@H]6O)[nH]c4cc3F)cc2)cc1 — inhibition (DDR2 (Homo sapiens, UniProt Q16832); enzyme activity, inhibitor; 10 µM): -8%
CCCCCCCCCCCCCCCCCC(=O)NC[C@H]1CC[C@H](C(=O)N[C@@H](CCC(=O)NCCCOCCOCCOCCCNC(=O)COCC(=O)N[C@@H](Cc2ccc(O)cc2)C(=O)NC(C)(Cc2ccccc2)C(=O)N[C@@H](CC(C)C)C(=O)N[C@@H](CCCC)C(=O)N[C@@H](CCCNC(=N)N)C(=O)N2CCC[C@H]2C(=O)N[C@@H](CCCNC(=N)NC)C(=O)N[C@@H](CC(N)=O)C(N)=O)C(=O)O)CC1 (stereo partly drawn) — inhibition (NPY1R; antagonist, DiscoverX GPCR panel; 1 µM): 64%
COc1ccc(F)cc1S(=O)(=O)Nc1cnc2c(c1)C(=O)NCCO2 — inhibition (NPY1R; ligand displacement, radioligand; 10 µM): 3%
OB(O)c1ccccc1-c1ccc2ccccc2c1 — inhibition (Beta-lactamase (ampC, Escherichia coli K-12, UniProt P00811); enzyme activity, inhibitor, CENTA hydrolysis absorbance; 10 µM): < 10%
CC(C)[C@H]1NC(=O)C[C@H]2/C=C/CCSSC[C@@H](NC1=O)C(=O)N[C@H](Cc1cccc3ccccc13)C(=O)NCC(=O)O2 — inhibition (MARK1 (Homo sapiens, UniProt Q9P0L2); enzyme activity, inhibitor; 10 µM): -2%
Cc1ccc2c(n1)c(-c1cccc(S(C)(=O)=O)c1)c(C)n2C/C(F)=C/CN — inhibition (Estrogen receptor (ESR1, Homo sapiens, UniProt P03372); ligand displacement, radioligand; 10 µM): -9%
C[C@H](NCc1ccc(-c2ccc(C(F)(F)F)cc2)cc1)C(N)=O — inhibition (MKNK1 (Homo sapiens, UniProt Q9BUB5); cell-free assay, competition with immobilised ligand; 1 µM): 5%
C=CC(=O)Nc1cc(-c2nn(C3CCC(N4CCN(C(C)=O)CC4)CC3)c3ncnc(N)c23)ccc1Oc1ccccc1 (stereo not drawn) — inhibition (MARK3 (Homo sapiens, UniProt P27448); inhibitor, KiNativ profiling; biochemical; 2 µM): -10.9%
NCC1CCN(Cc2ccccc2)CC1 — inhibition (ache (Electrophorus electricus, UniProt O42275); enzyme activity, inhibitor, Ellman; 20 µM): 33.7%
CN(C)[C@H]1C[C@@]23CC[C@@]4(O2)C(=CC[C@]2(C)[C@@H](c5ccc6ccncc6c5)CC[C@H]24)C=C3[C@@H](O)[C@@H]1O — inhibition (CDK7 (Homo sapiens, UniProt P50613); ATP probe labelling, inhibitor, KiNativ profiling; 1 µM): 4.6%
O=C(O)c1ccccc1/C=N/Nc1nc(-c2ccccc2Cl)cs1 — inhibition (ROS1 (Homo sapiens, UniProt P08922); enzyme activity, inhibitor; 1 µM): 3.98%
C[n+]1cn([C@@H]2O[C@H](COP(=O)([O-])CP(=O)(O)O)[C@@H](O)[C@H]2O)c2nc(N)nc(O)c21 — inhibition (mRNA decapping complex subunit 2, with Dcp1 (dcp2, Schizosaccharomyces pombe, UniProt O13828); 200 µM, 0.25 h): 16.2%

Excerpt of the above:
C[n+]1cn([C@@H]2O[C@H](COP(=O)([O-])CP(=O)(O)O)[C@@H](O)[C@H]2O)c2nc(N)nc(O)c21 — inhibition (mRNA decapping complex subunit 2, with Dcp1 (dcp2, Schizosaccharomyces pombe, UniProt O13828); 200 µM, 0.25 h): 16.2%
